Published values collected from several papers.
Numbered parts are unrelated; each lists some results of a single study. “And” joins repeats or separate records; there may be more than shown. ± marks the error that the study gave.

Series 1
Compound: O=C1NC2(CC2)COc2ncc(F)cc2[C@H]2COCCN2c2ccn3ncc1c3n2
Matrix: serum
Route: oral
Time: 4 weeks daily
test system	conditions	aspartate aminotransferase activity [U/L]
Sprague-Dawley rat, female	2.5 mg/kg/day, end of treatment	97 ± 16.1
Sprague-Dawley rat, male	20 mg/kg/day, end of treatment	117 ± 13.4
Sprague-Dawley rat, male	2.5 mg/kg/day, end of recovery period	94.2 ± 19.6

Other studies, line by line
SMILES	tested on	assay	test system	conditions	how to read	quantity	value
Cc1cc(C(=O)Nc2nc3cccc(C)c3n2[C@H]2CCCCN(C(=O)/C=C/CN(C)C)C2)ccn1	Trypanosoma brucei	cell growth, Alamar Blue	2T1 overexpressing Tb927.5.790	–	baseline: parental 2T1	EC50 fold shift	0.8 fold and 0.62 fold
CCn1ccc(-c2cc([C@@H](C)NC(=O)c3cc(N4CCN(C)CC4)ccc3C)c3ccccc3n2)n1	Vero E6	–	–	125 µM	–	viability	1.8% and 0.898%
C[C@@H](O)[C@@H]1NC(=O)[C@@H](NC(=O)CCOCCOCCOCCOCCNC(=O)c2ccc(NN)nc2)CSSC[C@@H](C(=O)O)NC(=O)[C@H](Cc2c[nH]cn2)NC(=O)[C@H](CO)NC(=O)[C@H](Cc2ccccc2)NC(=O)[C@@H]2CCCN2C(=O)[C@H](CO)NC(=O)[C@@H]2CCCN2C1=O [technetium-99m labelled]	–	–	mouse HCT-116 xenograft, muscle	intravenous, 37 MBq, postmortem after imaging	–	tissue uptake	0.02 ± 0.01 %ID/g
